Experimental data from different studies.
A part holds a random share of what one study measured. Changes are numbered by the printed parent chain.

Block 1
Target: Ras GTPase-activating protein-binding protein 1, full length (G3BP1, Homo sapiens, UniProt Q13283)
Chain of UniProt Q13283 (whole entry, looked up): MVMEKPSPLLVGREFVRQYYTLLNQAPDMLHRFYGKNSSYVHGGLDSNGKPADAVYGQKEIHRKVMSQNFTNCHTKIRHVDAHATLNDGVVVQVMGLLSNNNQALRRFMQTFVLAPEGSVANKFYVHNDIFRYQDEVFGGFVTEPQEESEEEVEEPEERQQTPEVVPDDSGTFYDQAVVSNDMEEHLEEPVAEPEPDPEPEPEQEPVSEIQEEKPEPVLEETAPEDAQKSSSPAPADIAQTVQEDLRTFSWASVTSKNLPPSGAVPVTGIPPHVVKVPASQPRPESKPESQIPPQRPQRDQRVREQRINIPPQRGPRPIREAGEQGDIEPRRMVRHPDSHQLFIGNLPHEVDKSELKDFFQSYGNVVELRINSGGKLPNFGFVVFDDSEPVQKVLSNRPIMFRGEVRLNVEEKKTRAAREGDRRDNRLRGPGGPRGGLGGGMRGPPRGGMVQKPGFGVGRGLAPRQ
Technique: RNA Bind-n-Seq
Form: RNA
Medium: in vitro
Concentration: 200 nM
Notes: whole 134-nt RNA, ends assumed
With: 150 mM LiCl
Relative to: input library
Reading: higher = stronger binding
Library: 7-deaza-guanosine replaces G
All sequences stand within: GGGAGUUCUACAGUCCGACGAUC … UGGAAUUCUCGGGUGUCAAGG
Sequence | log2 enrichment
ACCAUGCAGGUGGGCAUCUUUGGGAAGUGGGGCAAUGGGGGGAUAGGGAGGGGGGUAACACUUUGGGAACAGGUGGUCCCAGGUCGUUUC | 0.348
UGGAUGGACACCAUUAUCGUCGUGUGGCACGGGUUGACCUAAGGAAGAAGACAGAGACUUUCUCCACAAGAAGGGUUAAGUCUGGGCUGU | -0.155
UCCUUCCUUUUUUUGUCUUAAACAUAGGACAUGGAUUUGAUUGACAUACUUUGGAGGCAAGAUAUAGAUCUUGGAGUAAGUCGAGAAGUA | -0.824
AGUCCUGUGCUACACAUCGUAUGUACCGAAUCGGUUUUUGGUUUUUUUGGAAAAAGGAAAGUAUUAUGUUACGCCGUUCGGAUCUGCACU | -1.78
UCCUGUGCUACACAUCGUAUGUACCGAAUCGUGUGUGUGUGUGUGUGUGUGUGUGUGUGUAAAGUAUUAUGUUACGCCGUUCGGAUCUGC | -0.492
AGUCCUGUGCUACACAUCGUAUGUACCGAAUCGGGCCCCGGGGCCCCGGGCCCCGGGGAAAGUAUUAUGUUACGCCGUUCGGAUCUGCAC | -1.08
AGUCCUGUGCUACACAUCGUAUGUACCGAAUCGGGGUUUUUGGGGUGGGGAAAGGGGAAAGUAUUAUGUUACGCCGUUCGGAUCUGCACU | 0.55
UCCUGUGCUACACAUCGUAUGUACCGAAUCGGUUUUUUGGUUUUUUGGGGUUUUUUGGGAAAGUAUUAUGUUACGCCGUUCGGAUCUGCA | 0.337
UGCCCCUGGUGGCAUGCGGGGAGGAAGAGGUGGCCUCAUGGAUCGUGGUGGUCCCGGUGGAAUGUUCAGAGGUGGCCGUGGUGGAGACAG | -0.0789
CACAGACAACACGCAUCCACACAGACACAGAGGGAAGGGGUUGGGAUGGGGACAGGGUGCACAGCAGGGCGGGGUAGGACCCCAGCCCCU | 0.498
AGUCCUGUGCUACACAUCGUAUGUACCGAAUCGGGGCCCCGGGCCCCGGGGCCCCGGGAAAGUAUUAUGUUACGCCGUUCGGAUCUGCAC | -0.0682

Block 2
Target: ABI1, truncated, D143A, DHFR fusion (Arabidopsis thaliana)
Technique: DHFR PCA, deep sequencing
Medium: yeast
Notes: methotrexate growth selection, single substitutions
With: (+)-ABA 17 µM
Relative to: wild-type fitted maximum
Reading: higher = stronger binding
Starting sequence: PYL1, truncated, DHFR fusion (Arabidopsis thaliana); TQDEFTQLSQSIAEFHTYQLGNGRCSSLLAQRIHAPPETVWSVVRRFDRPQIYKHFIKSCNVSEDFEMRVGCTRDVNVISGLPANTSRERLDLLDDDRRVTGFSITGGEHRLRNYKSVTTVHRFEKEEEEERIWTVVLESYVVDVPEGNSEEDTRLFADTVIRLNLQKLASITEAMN; partner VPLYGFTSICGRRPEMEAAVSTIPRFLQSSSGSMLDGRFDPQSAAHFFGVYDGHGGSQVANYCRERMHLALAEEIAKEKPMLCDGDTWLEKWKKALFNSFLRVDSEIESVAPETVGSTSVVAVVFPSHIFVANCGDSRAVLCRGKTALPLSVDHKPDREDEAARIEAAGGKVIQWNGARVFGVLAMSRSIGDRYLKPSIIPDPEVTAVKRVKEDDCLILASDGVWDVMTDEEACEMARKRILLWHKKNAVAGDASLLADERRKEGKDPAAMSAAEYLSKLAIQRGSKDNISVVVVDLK
Variant | relative binding score [%]
T39H | 76.8
G23N | 81.6
W41N | 9.19
A13R | 81.5
C25N | 4.87
F157L | 66.2
N114D | 50.8
E152T | 73.9
V62I | 74.5
A84H | 27.2
E130P | 98.7
E64G | 82.3
V44I | 70.8
D95Q | 15.9
V161F | 70.4
E38K | 38.3

Block 3
Target: CREB5, bZIP domain (human)
Technique: DHFR protein complementation
Medium: yeast
Notes: single substitutions, most at no-binding floor
Relative to: wild-type JUN-FOS pair
Reading: higher = stronger binding
Starting sequence: JUN, bZIP domain (human); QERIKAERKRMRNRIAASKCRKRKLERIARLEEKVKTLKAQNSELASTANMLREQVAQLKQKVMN; partner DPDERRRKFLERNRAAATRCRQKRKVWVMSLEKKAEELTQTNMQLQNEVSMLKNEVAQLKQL
Variant | binding fitness [natural log]
Q41E | -0.297
Q58P | -1.22
T48M | -0.209
R30Q | -0.144
R53F | -1.32
L31F | -0.988
T48I | -0.34
E32N | -0.653
A57V | -0.251
A57K | -0.21
L52I | -1.12
E33W | -0.609
M51R | -0.264
Q58G | -0.463
K36D | -0.294

Block 4
Target: CCNE1, cyclin fold, Cln2 fusion (human)
Technique: yeast growth competition, sequencing
Medium: yeast
Notes: weak parent motif
Relative to: not given
Reading: higher = stronger binding
Starting sequence: RB1 docking peptide (human); PKPLKKLRFDIEG
Variant | normalised enrichment score
P1E | 0.753
F9L | 0.441
R8N | 0.336
K6A | 0.328
I11A | 0.818
K5R | 0.138
K5F | 0.0897
D10N | 0.227
L4A | 0.546
G13N | 0.178
G13Y | -0.622
K5R F9L | -0.138
D10E | -0.666
K2Q | 0.233
F9D | -0.0302
K6E | -0.453
F9E | -1.16

Block 5
Target: PABPC1L2, full length, GST fusion (mouse, UniProt A0ABA7IW68)
Technique: RNAcompete
Form: RNA
Medium: in vitro
Concentration: 20 nM
Notes: 7-mer, probes averaged, single round
Relative to: mean of 7-mers
Reading: higher = stronger binding
Construct (chain): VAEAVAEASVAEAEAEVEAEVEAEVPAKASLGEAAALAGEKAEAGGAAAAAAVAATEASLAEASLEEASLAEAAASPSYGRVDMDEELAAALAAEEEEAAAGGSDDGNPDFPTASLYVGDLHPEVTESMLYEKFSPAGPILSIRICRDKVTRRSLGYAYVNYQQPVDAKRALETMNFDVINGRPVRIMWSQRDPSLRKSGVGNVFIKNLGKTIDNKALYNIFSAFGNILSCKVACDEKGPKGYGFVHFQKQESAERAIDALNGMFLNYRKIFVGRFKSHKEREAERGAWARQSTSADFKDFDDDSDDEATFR
Sequence | 7-mer Z-score
AGGCACC | -0.0047
UGUAUUC | -0.331
UGCCUGG | -0.186
CCAAUGU | -0.237
CGUGCGC | -0.28
GUUGGUU | -0.356
GGUCCGC | -0.311
GAUCCUG | -0.229
UCGCUCA | -0.269
GACGUCA | -0.229
ACUACUA | -0.0391
UACCGCG | -0.266
UAAAGUC | 0.441
AAAGUUC | 0.939
UCUAUCA | -0.267
UAAAAAA | 17.3

Block 6
Target: Cyclic AMP-responsive element-binding protein 1, full length (CREB1, Homo sapiens, UniProt P16220, residues 1-327)
Chain of UniProt P16220 (whole entry, looked up): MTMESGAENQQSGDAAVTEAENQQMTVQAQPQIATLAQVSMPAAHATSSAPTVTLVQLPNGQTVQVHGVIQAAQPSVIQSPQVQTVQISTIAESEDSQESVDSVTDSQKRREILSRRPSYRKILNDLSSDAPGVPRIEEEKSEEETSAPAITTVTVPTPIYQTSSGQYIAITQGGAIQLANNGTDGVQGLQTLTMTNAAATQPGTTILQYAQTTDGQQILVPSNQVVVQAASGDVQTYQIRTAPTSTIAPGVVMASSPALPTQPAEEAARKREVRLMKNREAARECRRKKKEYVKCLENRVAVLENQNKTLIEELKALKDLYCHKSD
Technique: protein-binding microarray
Form: hairpin DNA
Medium: in vitro
Concentration: not given
Notes: whole hairpin DNA, median over replicate spots
Relative to: not given
Reading: higher = stronger binding
Sequence | median fluorescence
GAGGCCGGCTGAAGTCAGCCTCCTGGCTGACTTCAGCCGGCCTCACACTC | 2510 a.u.
GAGGCCGGATGACGTCAGCCTCCTGGCTGACGTCATCCGGCCTCACACTC (5mC at 13) | 7620 a.u.
GAGGCCGGCTGACGTCTGCCTCCTGGCAGACGTCAGCCGGCCTCACACTC | 4670 a.u.
GAGGCCGCGGACGTCGTGCCTCCTGGCACGACGTCCGCGGCCTCACACTC (5mC at 8 15 29 35 36) | 3340 a.u.
GAGGCCGACGACGTCCTGCCTCCTGGCAGGACGTCGTCGGCCTCACACTC (5mC at 9 15 16 35) | 3000 a.u.
GAGGCCGACGGCGTCGTGCCTCCTGGCACGACGCCGTCGGCCTCACACTC (5mC at 9 15 29 34 35) | 3670 a.u.
GAGGCCGGCTCGCGTCAGCCTCCTGGCTGACGCGAGCCGGCCTCACACTC | 3590 a.u.
GAGGCCGGCTGACCGCAGCCTCCTGGCTGCGGTCAGCCGGCCTCACACTC | 2790 a.u.
GAGGCCGACGACGCGGTGCCTCCTGGCACCGCGTCGTCGGCCTCACACTC (5mC at 9 14 29 30 35) | 4610 a.u.
GAGGCCGGCTGAGGTCAGCCTCCTGGCTGACCTCAGCCGGCCTCACACTC | 2800 a.u.
GAGGCCGACGACGCGGTGCCTCCTGGCACCGCGTCGTCGGCCTCACACTC (5mC at 9 14 29 35) | 4950 a.u.
GAGGCCGGATCGCGTCAGCCTCCTGGCTGACGCGATCCGGCCTCACACTC (5mC at 11) | 3680 a.u.
GAGGCCGGCTGACCTCAGCCTCCTGGCTGAGGTCAGCCGGCCTCACACTC (5mC at 14) | 2350 a.u.
GAGGCCGGCTGACCGCAGCCTCCTGGCTGCGGTCAGCCGGCCTCACACTC (5mC at 14) | 2630 a.u.
GAGGCCGGCTGACGTCAGCCTCCTGGCTGACGTCAGCCGGCCTCACACTC (5mC at 13 31) | 2760 a.u.
GAGGCCCGCTGACGTCAGCCTCCTGGCTGACGTCAGCGGGCCTCACACTC (5mC at 7) | 15800 a.u.
GAGGCCGGATGACGGCAGCCTCCTGGCTGCCGTCATCCGGCCTCACACTC | 4420 a.u.

Block 7
Target: Eukaryotic initiation factor 4A-I (EIF4A1, Homo sapiens, UniProt P60842, residues 1-406, full length assumed)
Chain of UniProt P60842 (whole entry, looked up): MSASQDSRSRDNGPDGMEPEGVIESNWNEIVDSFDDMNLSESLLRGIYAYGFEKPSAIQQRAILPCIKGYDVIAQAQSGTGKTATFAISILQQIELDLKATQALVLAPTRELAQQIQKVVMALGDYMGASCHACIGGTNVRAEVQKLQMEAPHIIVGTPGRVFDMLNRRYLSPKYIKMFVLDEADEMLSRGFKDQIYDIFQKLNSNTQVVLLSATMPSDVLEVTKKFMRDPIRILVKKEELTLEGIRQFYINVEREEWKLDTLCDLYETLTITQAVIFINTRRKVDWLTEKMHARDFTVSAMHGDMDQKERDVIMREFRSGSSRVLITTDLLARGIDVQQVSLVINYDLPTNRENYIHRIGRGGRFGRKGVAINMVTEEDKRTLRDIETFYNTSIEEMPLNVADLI
Technique: RNA Bind-n-Seq
Form: RNA
Medium: in vitro
Concentration: 15 pmol
Notes: 4-mer, random 30-nt RNA, single round
With: 3 µM RocA, 2 mM AMP-PNP
Relative to: mean of 4-mers
Reading: higher = stronger binding
Sequence | 4-mer enrichment Z-score
AUGU | 0.757
UCGA | -0.136
CCGC | -0.731
GGGU | 1.81
GCGG | 1.08
GAGC | 0.633
CAAA | 0.134
ACUC | -1.29
CAGC | -0.888
UUUA | 0.0885
AUUG | 0.447
CUAA | -0.182
GGUG | 2.21
ACCA | -1.05
ACCG | -0.597

Repeated from above (block 5):
Sequence | 7-mer Z-score
GAUCCUG | -0.229
UCGCUCA | -0.269
AAAGUUC | 0.939
UAAAGUC | 0.441
CCAAUGU | -0.237
UGUAUUC | -0.331
GUUGGUU | -0.356
CGUGCGC | -0.28
UGCCUGG | -0.186
UACCGCG | -0.266
ACUACUA | -0.0391
UCUAUCA | -0.267
UAAAAAA | 17.3
GACGUCA | -0.229
GGUCCGC | -0.311
AGGCACC | -0.0047
